# Experimental data collected from several papers.
# Compare with care: the assays were run in different laboratories. Several values in a cell are separate wells, animals, samples, runs or records. Numbers after ± are the reported error.
# TDP1: Tyrosyl-DNA phosphodiesterase 1 (TDP1, Homo sapiens, UniProt Q9NUW8)
# Chain of UniProt Q9NUW8 (whole entry, looked up): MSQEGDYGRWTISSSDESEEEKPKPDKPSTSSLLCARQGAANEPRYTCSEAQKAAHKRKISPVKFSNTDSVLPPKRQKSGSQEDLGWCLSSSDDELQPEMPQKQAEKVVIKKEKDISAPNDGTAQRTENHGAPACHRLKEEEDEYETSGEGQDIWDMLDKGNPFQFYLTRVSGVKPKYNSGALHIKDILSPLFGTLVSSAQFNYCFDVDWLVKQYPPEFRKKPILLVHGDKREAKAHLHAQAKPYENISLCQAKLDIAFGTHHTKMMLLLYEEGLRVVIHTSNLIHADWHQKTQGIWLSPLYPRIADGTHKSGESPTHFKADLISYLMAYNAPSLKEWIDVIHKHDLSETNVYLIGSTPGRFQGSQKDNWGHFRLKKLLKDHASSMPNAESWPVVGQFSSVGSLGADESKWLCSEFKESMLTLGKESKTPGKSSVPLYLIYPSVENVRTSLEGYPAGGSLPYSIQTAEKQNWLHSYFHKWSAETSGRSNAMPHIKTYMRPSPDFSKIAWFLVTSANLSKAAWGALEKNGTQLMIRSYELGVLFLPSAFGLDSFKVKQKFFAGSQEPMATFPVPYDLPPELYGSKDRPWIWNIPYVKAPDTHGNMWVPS
SMILES,tested on,test,test system,conditions,scale,measurement,value
CN(O)C(=O)CCC(=O)NCCCN(CCCCN(CCCNC(=O)CCC(=O)N(C)O)C(=O)CCC(=O)N(C)O)C(=O)CCC(=O)N(C)O.[89Zr],,,mouse plasma,"5 d, 37 °C",,intact complex,100%
CN([O-])C(=O)CN1CCN(CC(=O)N(C)[O-])CCN(Cc2ccccn2)CC1.[89Zr+4],,,"mouse, liver","intravenous, 1 h",,tracer uptake,0.85 %ID/g
COc1cc2ncnc(Oc3ccc(Nc4nccc5[nH]cc(-c6ccc(F)cc6)c(=O)c45)cc3F)c2cc1OC,,,"male cynomolgus monkey, plasma","oral, 3 mg/kg",,AUC(0-t),24500 ng·h/mL
CC(C(=O)O)n1nc(Cn2cc3cc(OCC[18F])c(Cl)cc3n2)c2ccccc2c1=O (racemic),,,"rat, heart",1 h,,tracer uptake,0.11 %ID/g
O=C1NC(=O)/C(=C/c2ccc3ncnc(N4CCC(F)CC4)c3n2)S1,,,NSG mice,"dose not given, day 3",,body weight,22.7 g and 24.8 g and 22 g and 26.5 g
COCC1CN(C2CCN(c3cc(OC)c(Nc4ncc(Br)c(Nc5ccc6c(c5P(C)(C)=O)OCCO6)n4)cc3C)CC2)C1,,,EGFR-mutant NSCLC patients,"oral, 150 mg once daily",,patients with adverse events,100%
CC(C)CCCC(C)C1CCC2C3CC=C4CC(OC(=O)NCCOCCOCCOCCn5cc(CN(CCCNC(=O)c6ccc(C(=O)[O-])c(-c7c8ccc(=O)cc-8oc8cc(O)ccc78)c6)CCCNc6ncnc7c6ncn7C6OC(COP(=O)(O)OP(=O)(O)OP(=O)(O)OCC7OC(n8c[n+](C)c9c(O)nc(N)nc98)C(O)C7O)C(O)C6O)nn5)CCC4(C)C3CCC12C (centres unmarked),,fluorescence correlation spectroscopy,water,36 °C,,diffusion coefficient,159 ± 36 µm²/s
C=CC(=O)Nc1cc(Nc2nccc(-c3cn(C)c4ccccc34)n2)c(OC)cc1N(C)CCNC,,,human plasma,"24 h, storage stability, low QC sample",,recovery,66.1%
CC(C)(c1cc(Br)c(O)c(Br)c1)c1cc(Br)c(O)c(Br)c1,,,whole cow milk,20 nM nominal,,dose fraction in milk fat,47.3%
CC[C@H](C)[C@@H]1NC(=O)[C@H](Cc2ccc(O)cc2)NC(=O)CSC[C@@H](C(N)=O)NC(=O)[C@H](CC(N)=O)NC(=O)[C@H](Cc2c[nH]cn2)NC(=O)[C@H](Cc2ccc(O)cc2)NC(=O)[C@H](CC(=O)O)NC(=O)[C@H](Cc2ccc(F)cc2)NC(=O)[C@H](CC(C)C)NC(=O)[C@H](CCCNC(=N)N)NC1=O,,PAMPA,,"200 µM, 5 h, pH 7.4",,membrane retention,< 0.01%
COc1cccc(OC)c1-c1cc(C(=O)NC2(C(=O)O)C3CC4CC(C3)CC2C4)nn1-c1ccc(C(=O)N(C)CCOCCN(C)C(=O)[C@H](CCCCNC(=O)[C@H](CC(C)C)NC(=O)C2OC2C(=O)O)NC(=O)CN2CCN(CC(=O)[O-])CCN(CC(=O)[O-])CCN(CC(=O)[O-])CC2)cc1C(C)C.[177Lu+3] (mixture of isomers),,,mouse HT-29 xenograft,"72 h, biodistribution",reference: tumour over spleen,tumour-to-spleen ratio,3.32
CCCCN1C(=O)c2cccc3c(NCCCCCCCCCCN4CCOCC4)ccc(c23)C1=O,,,dioxane,,,emission maximum,513 nm
Cc1noc(C)c1Cn1cc(N2C(=O)CN(Cc3cccc(OS(=O)(=O)O)c3)C2=O)cn1,,,"rat Sprague-Dawley male, plasma","intravenous, 1 mg/kg of parent drug, 8 h",,plasma concentration,108 ng/mL
NC(=O)[C@H](CCC(=O)O)NC(=O)[C@H](CCC(=O)O)NC(=O)[C@H](Cc1ccc(O)cc1)NC(=O)[C@H](Cc1ccccc1)NC(=O)[C@H](Cc1ccccc1)NC(=O)OCC1c2ccccc2-c2ccccc21,,CD spectroscopy,peptide nanofibres,,,β-sheet content,33.8%
OC1(C(F)(F)F)CCN(c2nc(Nc3ccnc(C(F)(F)F)c3)nc(-c3cccc(C(F)(F)F)n3)n2)C1 (centres unmarked),,,monkey,"oral, 1 mg/kg",,AUC(0-inf),6140 ± 725 ng·h/mL
C=Cc1cccc(C=NOCc2ccc3nc(-c4ccccc4)c(Nc4ccc(C(=O)O)cc4)n3c2)c1,TDP1,"enzyme activity, inhibitor",,"100 µM, unpurified compound",,inhibition,8.2%
Cc1[nH]c(=O)c(CNC(=O)c2cc(Cl)c3c(c2C)O[C@@](C)([C@H]2CC[C@H](N(C)C)CC2)O3)c(C)c1O,,,"healthy men, feces","oral, 200 mg [14C]-valemetostat",reference: dose,excretion,5.61%
Nc1nc2cnc(C(=O)N3CCOC[C@@H]3c3ccc(C(F)(F)F)cc3)cc2c2c1COC2,,,"rat, plasma",,,fraction unbound,0.099
Cc1cnc2nc1Nc1cccc(c1)COC/C=C/COCc1cc(ccc1OCCN1CCOCC1)N2,,,"BALB/c mice, rhEPO-induced polycythemia","100 mg/kg, day 2",,body weight,19.5 g and 19.6 g and 18.3 g and 18.8 g and 17.9 g and 18.7 g
CN(C)C(=O)c1ccnc(N2Cc3cn(Cc4ccc(F)cc4F)nc3C2)n1,,,MDCK-MDR1,,,Papp,33.9 ×10⁻⁶ cm/s
[123I]c1ccc2nc(-c3ccc(-n4ccnn4)nc3)cn2c1,,,"male Wistar rat, kidney","intravenous, 4 MBq, 30 min",,tracer uptake,1.55 %ID/g
CC(C)(O)c1ncc([S@](N)(=O)=NC(=O)Nc2c3c(cc4c2CCC4)CCC3)s1,,measured: infections and infestations,healthy human volunteers,"oral, 25 mg twice daily, 14 days, enteric-coated tablet",,subjects with adverse events,13%
COc1cc2oc(-c3ccccc3)cc(=O)c2c(O)c1O,,cyclic voltammetry,"DMSO, 0.1 M Bu4NPF6",25 °C,,half-wave potential,-1.85 V vs Ag/AgCl
Cc1nc(N)nc2c1C(=O)N[C@@H](c1ccc(F)cc1-c1cccc(O[11CH3])n1)C2,,ex vivo biodistribution,"healthy mice, brain","60 min post-injection, baseline, vehicle pre-treatment",,SUV,2 ± 0.3
CC[C@H](C)[C@@H]1NC(=O)[C@H](Cc2ccc(O)cc2)NC(=O)CCCSC[C@@H](C(=O)N(CC(=O)N[C@@H](CC(C)C)C(=O)NCC(N)=O)Cc2ccc(F)cc2)NC(=O)[C@H](CC(N)=O)NC(=O)[C@H](CCC(N)=O)NC1=O,,,human,"intranasal, 100 µg single dose",,adverse drug reactions,0%
C=C(NC(=O)c1csc(-c2nc3c(cc2O)-c2nc(cs2)C(=O)NC(C(C)O)C(=O)NC(=C(C)OC)c2nc(cs2)C(=O)NC2c4nc(cs4)C(=O)NC(COC(=O)c4c5c6c(cccc6n4O)COC(=O)C(OC4CC(C)(O)C(N(C)C)C(C)O4)C2OC5)c2nc-3cs2)n1)C(N)=O (centres unmarked),,,"cynomolgus monkey, both sexes, plasma","intravenous infusion, 1.5 mg/kg twice daily, 0 to 30 h",,AUC(0-inf),26600 ng·h/mL
Cc1cc(C(=O)N[C@@H](CC(=O)NC(C)(C)C)C(=O)NCCNC(=O)c2cccc(-n3cccn3)c2)no1,,,"mouse, plasma","oral, 1 mg/kg",,MRT,53.4 min
O=C(c1ccnc(N2Cc3cnn(Cc4ccc(F)cc4)c3C2)n1)N1CCOCC1,,metabolic stability,"rat, liver microsomes",,,half-life,43 min
CCCCN1C(=O)c2cccc3c(NCCCCCCCCN4CCOCC4)ccc(c23)C1=O,,,ethylene glycol,,,emission maximum,545 nm
COc1cccc(OC)c1-c1cc(C(=O)NC2(C(=O)O)C3CC4CC(C3)CC2C4)nn1-c1ccc(C(=O)N(C)CCCN(C)C(=O)[C@H](CCCCNC(=O)[C@H](CC(C)C)NC(=O)C2OC2C(=O)O)NC(=O)CN2CCN(CC(=O)[O-])CCN(CC(=O)[O-])CCN(CC(=O)[O-])CC2)cc1C(C)C.[177Lu+3] (mixture of isomers),,,mouse HT-29 xenograft,"4 h, biodistribution",reference: tumour over spleen,tumour-to-spleen ratio,9.05
CC(C)C[C@H](NC(=O)[C@H](CCCN)NC(=O)CNC(=O)[C@@H](NC(=O)[C@H](C)NC(=O)[C@@H]1CSCSC[C@H](NC(=O)CC[C@H](N)C(=O)O)C(=O)N[C@@H](CC(N)=O)C(=O)N[C@@H]([C@@H](C)O)C(=O)N[C@@H](C)C(=O)N[C@@H]([C@@H](C)O)C(=O)N1)[C@@H](C)O)C(=O)N[C@@H](C)C(=O)N[C@@H](CCC(=O)O)C(=O)N[C@@](C)(Cc1ccccc1)C(=O)N[C@@H](CC(C)C)C(=O)N[C@H](C(=O)N[C@@H](CCCNC(=N)N)C(=O)N[C@@H](CO)C(=O)N[C@@H](CO)C(=O)N[C@@H](CC(N)=O)C(=O)N(C)[C@@H](CC(N)=O)C(=O)N[C@@H](Cc1ccccc1)C(=O)NCC(=O)N1CCC[C@H]1C(=O)N[C@@H](CCCCNC(=O)CC[C@H](NC(=O)CC[C@H](NC(=O)CCCCCCCCCCCCCCCCCCC(=O)O)C(=O)O)C(=O)O)C(=O)N[C@@H](CC(C)C)C(=O)N1CCC[C@H]1C(=O)N1CCC[C@H]1C(=O)N[C@H](C(=O)N[C@@H](CCC(=O)O)C(=O)N[C@H](C(=O)NCC(=O)N[C@@H](CO)C(=O)N[C@@H](CC(N)=O)C(=O)N[C@H](C(=O)N[C@@H](Cc1ccc(O)cc1)C(N)=O)[C@@H](C)O)C(C)C)[C@@H](C)O)C(C)C,,,"human, plasma","subcutaneous, 0.4 mg, single dose, healthy volunteers",,Tmax,132 h
CSc1nc(C=NOCc2ccc3nc(-c4ccccc4)c(Nc4ccc(C(=O)O)cc4)n3c2)ccc1C#N (mixture of isomers),TDP1,"enzyme activity, inhibitor",,"100 µM, unpurified compound",,inhibition,64.8%
COc1cccc(OC)c1-c1cc(C(=O)NC2(C(=O)O)C3CC4CC(C3)CC2C4)nn1-c1ccc(C(=O)N(C)CCCN(C)CCCN(C)C(=O)[C@H](CCCCNC(=O)[C@H](CC(C)C)NC(=O)C2OC2C(=O)O)NC(=O)CN2CCN(CC(=O)[O-])CCN(CC(=O)[O-])CCN(CC(=O)[O-])CC2)cc1C(C)C.[177Lu+3] (mixture of isomers),,,mouse HT-29 xenograft,"24 h, biodistribution",reference: tumour over pancreas,tumour-to-pancreas ratio,26.5
C=CC(=O)Nc1cc(Nc2nccc(-c3c[nH]c4ccccc34)n2)c(OC)cc1N(C)CCN(C)C,,storage stability,human plasma,"30 d, -80 °C, LLOQ level",,recovery,97.6%
CCCCN1C(=O)c2cccc3c(NCCCCCN4CCOCC4)ccc(c23)C1=O,,,methanol,,,emission maximum,534 nm
Cc1cc(NC(=O)c2ccc(Br)cc2)n[nH]1,,,aqueous buffer,pH 7.4,,thermodynamic solubility,15.9 µg/mL
CCCCN1C(=O)c2cccc3c(NCCCCCCN4CCOCC4)ccc(c23)C1=O,,,DMSO,,,fluorescence lifetime,10.5 ns
O=C(Nc1cnccc1-c1ccc([18F])cc1)c1ccnc(NC(=O)C2CC2)c1,,ex vivo gamma counting,"GSK-3β transgenic mice, late-stage, feces","intravenous, 120 min, mean, no P-gp inhibitor",,SUV,6.17
C=CC(=O)N1CCCC(n2c(=O)c3ncccc3n(Cc3ccc(Oc4ccccc4)cc3)c2=O)C1 (centres unmarked),,,"male BALB/c mouse, plasma","intraperitoneal, 200 mg/kg, 6 h",,concentration,150 ng/mL
C=C[C@]1(C)C[C@@H](OC(=O)CSc2ccc(NC(=O)c3ccco3)cc2)[C@]2(C)[C@H](C)CC[C@]3(CCC(=O)[C@H]32)[C@@H](C)[C@@H]1O,,,"M. gallisepticum-infected chickens, plasma","intramuscular, 5 mg/kg single dose",,apparent clearance (CL/F),55.8 mL/min/kg and 55.9 mL/min/kg
CCCCN1C(=O)c2cccc3c(NCCN4CCOCC4)ccc(c23)C1=O,,,chloroform,,,fluorescence lifetime,8.1 ns

# A few entries again:
SMILES,tested on,test,test system,conditions,scale,measurement,value
C=C(NC(=O)c1csc(-c2nc3c(cc2O)-c2nc(cs2)C(=O)NC(C(C)O)C(=O)NC(=C(C)OC)c2nc(cs2)C(=O)NC2c4nc(cs4)C(=O)NC(COC(=O)c4c5c6c(cccc6n4O)COC(=O)C(OC4CC(C)(O)C(N(C)C)C(C)O4)C2OC5)c2nc-3cs2)n1)C(N)=O (centres unmarked),,,"cynomolgus monkey, both sexes, plasma","intravenous infusion, 1.5 mg/kg twice daily, 0 to 30 h",,AUC(0-inf),26600 ng·h/mL
Cc1cc(C(=O)N[C@@H](CC(=O)NC(C)(C)C)C(=O)NCCNC(=O)c2cccc(-n3cccn3)c2)no1,,,"mouse, plasma","oral, 1 mg/kg",,MRT,53.4 min
